Measured values pooled from the literature.
Every numbered part comes from another study and shows a few of its results, in no order.

Series 1 — method: competition protein-binding microarray; molecule type: double-stranded DNA, one strand shown; medium: in vitro; concentration: 2 µM; with: Cbf1 competitor, 0.05 µM; reading: higher = stronger binding; endpoint: fluorescence intensity
Target: Phosphate system positive regulatory protein PHO4, full length, GST-tagged (PHO4, Saccharomyces cerevisiae, UniProt P07270, residues 1-312)
Setting: whole 60-bp probe, lowest competitor level
Construct (chain): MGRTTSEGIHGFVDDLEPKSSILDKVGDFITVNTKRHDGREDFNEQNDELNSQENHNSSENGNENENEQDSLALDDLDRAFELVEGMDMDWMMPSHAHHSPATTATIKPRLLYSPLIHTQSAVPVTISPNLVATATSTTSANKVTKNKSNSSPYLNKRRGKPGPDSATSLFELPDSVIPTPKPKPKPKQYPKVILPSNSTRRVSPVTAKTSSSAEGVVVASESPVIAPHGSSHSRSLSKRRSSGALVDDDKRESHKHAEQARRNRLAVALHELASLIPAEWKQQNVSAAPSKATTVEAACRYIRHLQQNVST
CGTCCTAGTGATTGCACGGTGGGTGCCATGAGGAAGGTCTTGATTCGCTTGACGCTGCTG: 8320 a.u.
CTTTCCCGATCTTGTCACAAAACTTTAGCACATTTGGTCTTGATTCGCTTGACGCTGCTG: 3540 a.u.
ATCTTTCCCCGCATTCTCGTGGGTACCAAATAAGCTGTCTTGATTCGCTTGACGCTGCTG: 9450 a.u.
CATCCGCACATCGCGCATGTGTGGGTGTATATGCCCGTCTTGATTCGCTTGACGCTGCTG: 12700 a.u.

Series 2 — method: protein binding microarray; molecule type: double-stranded DNA, one strand shown; medium: in vitro; concentration: not given; reference: not given; reading: higher = stronger binding; endpoint: E-score
Target: Histone acetyltransferase KAT6A, winged helix 1, GST fusion (KAT6A, Homo sapiens, UniProt Q92794, residues 1-85)
Setting: 8-mer, flanks averaged, mean of 2 arrays, mostly near background
Construct (chain): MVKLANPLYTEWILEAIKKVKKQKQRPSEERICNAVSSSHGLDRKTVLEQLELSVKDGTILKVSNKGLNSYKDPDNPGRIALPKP
AAGCCTTC: -0.145
GGTGCCTA: -0.128
GGCATGAA: 0.02
ACTCGTGG: -0.165
AGCAATTA: 0.0811
AAGGATAA: -0.078

Series 3 — method: universal PBM; molecule type: double-stranded DNA, one strand shown; medium: in vitro; concentration: not given; reading: higher = stronger binding; endpoint: E-score
Target: Sal-like protein 4, full length isoform B (SALL4, Homo sapiens, UniProt Q9UJQ4-2, residues 1-616)
Setting: 8-mer, flanks averaged, mean of replicates
Residues (chain): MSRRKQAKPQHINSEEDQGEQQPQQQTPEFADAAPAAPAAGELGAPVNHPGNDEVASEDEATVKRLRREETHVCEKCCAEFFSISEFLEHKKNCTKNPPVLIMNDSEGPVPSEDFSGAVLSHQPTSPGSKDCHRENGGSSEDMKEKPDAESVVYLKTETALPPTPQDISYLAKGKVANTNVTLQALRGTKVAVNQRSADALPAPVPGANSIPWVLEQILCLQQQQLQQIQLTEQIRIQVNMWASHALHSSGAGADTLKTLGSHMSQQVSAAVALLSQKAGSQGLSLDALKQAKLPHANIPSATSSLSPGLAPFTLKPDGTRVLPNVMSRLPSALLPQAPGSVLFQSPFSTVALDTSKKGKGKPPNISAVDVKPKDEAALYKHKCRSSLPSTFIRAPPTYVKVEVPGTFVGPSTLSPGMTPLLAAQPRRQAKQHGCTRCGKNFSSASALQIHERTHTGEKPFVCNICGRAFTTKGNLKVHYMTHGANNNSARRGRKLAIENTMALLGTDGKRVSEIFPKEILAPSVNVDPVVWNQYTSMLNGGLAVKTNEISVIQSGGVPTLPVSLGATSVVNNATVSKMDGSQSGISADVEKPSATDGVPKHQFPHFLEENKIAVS
GATACTAC: 0.117
AACTAGCG: -0.0659
AAATCTCG: 0.0787
AATCGTCA: 0.155

Other studies, line by line
PhoQ, residues 284 288 289 292 302 303 TGYLSA  fold induction (PhoP, residues 12 14 15 18 19 VQGLL (Escherichia coli, UniProt P23836); Sort-seq, measured: YFP reporter; E. coli; PhoQ-PhoP variant library, with: 10 µM Mg2+; reference: high Mg2+ state, higher = stronger signaling): 2.88
